Results from different studies.
Lines come from different studies, so protocols differ. ± gives the spread as reported.

Substance | organism | assay | test system | conditions | MIC
C/C=C/C=C/C(=O)N/N=C/c1ccccc1Cl | Candida albicans, Aspergillus niger | fungal growth |  |  | 28.2 µM
CC[C@H](C)[C@H](NC(=O)[C@H](CCCNC(=N)N)NC(=O)[C@H](CCCNC(=N)N)NC(=O)[C@@H]1CCCN1C(=O)[C@@H]1CCCN1C(=O)[C@H](CCCNC(=N)N)NC(=O)[C@@H]1CCCN1C(=O)[C@H](CCCNC(=N)N)NC(=O)[C@@H]1CCCN1C(=O)[C@H](CCCCN)NC(=O)[C@H](Cc1ccc(O)cc1)NC(=O)[C@@H]1CCCN1C(=O)[C@H](CCCNC(=N)N)NC(=O)[C@H](CCCCN)NC(=O)[C@H](CC(=O)O)NC(=O)[C@@H](N)C(C)C)C(=O)N[C@@H](Cc1ccc(O)cc1)C(=O)N[C@@H](CC(N)=O)C(=O)N[C@@H](CCCNC(=N)N)C(N)=O | Salmonella enterica serovar Typhimurium | bacterial growth | SL1344 |  | 0.39 ± 0.18 µg/mL
actinomycin Y4 | Micrococcus luteus | broth microdilution | ATCC 15307 | 16 to 48 h | 4.66 µg/mL
CC[C@H](C)[C@H](NC(=O)[C@H](CCCCN)NC(=O)[C@H](CCCCN)NC(=O)[C@H](CC(C)C)NC(=O)[C@@H](NC(=O)[C@H](CCCCN)NC(=O)[C@H](C)NC(=O)[C@H](C)NC(=O)[C@@H](NC(=O)CNC(=O)[C@H](C)NC(=O)[C@@H](NC(=O)[C@H](CCCCN)NC(=O)[C@@H]1CCCN1C(=O)[C@H](Cc1ccccc1)NC(=O)[C@@H](N)Cc1ccccc1)C(C)C)C(C)C)C(C)C)C(=O)N[C@@H](Cc1ccccc1)C(=O)N[C@H]1CSSC[C@@H](C(=O)O)NC(=O)[C@H](CCCCN)NC(=O)[C@H](CCCCN)NC(=O)[C@H](CO)NC(=O)[C@H]([C@@H](C)CC)NC(=O)[C@H]([C@@H](C)O)NC1=O | Candida albicans |  | 10231 | 18 h, 37 °C | > 128 µM
CC(C)C[C@H](NC(=O)[C@H](CCCNC(=N)N)NC(=O)[C@H](CC(C)C)NC(=O)[C@@H](NC(=O)[C@H](CC(C)C)NC(=O)[C@H](Cc1c[nH]cn1)NC(=O)[C@H](CC(C)C)NC(=O)[C@@H](NC(=O)[C@H](C)N)[C@@H](C)O)C(C)C)C(=O)N[C@@H](CCCNC(=N)N)C(=O)NCC(=O)NCC(=O)O | Bacillus megaterium |  | 899 | 37 °C, ≥90% viability decrease | 5 µM
TFFRLFNRGRRRRSVQWCA | Streptococcus sanguinis | broth microdilution | peptide, ATCC 49295 | 24 h, 37 °C, planktonic, anaerobic | 99.6 ± 33.7 µg/mL
CCCCCCCCCCCC(=O)N/N=C/c1ccccc1 | Candida albicans, Aspergillus niger | fungal growth |  |  | 61.7 µM
CC[C@H](C)[C@H](NC(=O)[C@@H]1CCCN1C(=O)[C@H](CCCNC(=N)N)NC(=O)[C@@H]1CCCN1C(=O)[C@@H]1CCCN1C(=O)[C@@H](NC(=O)[C@@H]1CCCN1C(=O)[C@H](CCCNC(=N)N)NC(=O)[C@@H]1CCCN1C(=O)[C@H](CC(C)C)NC(=O)[C@H](Cc1ccc(O)cc1)NC(=O)[C@H](CO)NC(=O)CNC(=O)[C@H](CCCCN)NC(=O)[C@H](CC(=O)O)NC(=O)[C@@H](N)C(C)C)[C@@H](C)O)C(=O)N[C@@H](Cc1ccc(O)cc1)C(=O)N[C@@H](CC(N)=O)C(=O)N[C@@H](CCCNC(=N)N)C(=O)N[C@@H](CC(N)=O)C(=O)O | Salmonella enterica serovar Typhimurium |  | SL1344, Mueller-Hinton broth | 18 h, 37 °C | 1.2 ± 0.278 µM
CCCCCCCCCCCCCCCCCC(=O)N/N=C/c1ccccc1 | Candida albicans, Aspergillus niger | fungal growth |  |  | 22.4 µM
CC(C)C[C@H](NC(=O)CNC(=O)[C@H](C)NC(=O)[C@@H](N)CCCNC(=N)N)C(=O)N[C@@H](CCC(N)=O)C(=O)N[C@@H](Cc1ccccc1)C(=O)N1CCC[C@H]1C(=O)N[C@H](C(=O)NCC(=O)N[C@@H](CCCNC(=N)N)C(=O)N[C@H](C(=O)N[C@@H](Cc1c[nH]cn1)C(=O)N[C@@H](CCCNC(=N)N)C(=O)N[C@@H](CC(C)C)C(=O)N[C@@H](CC(C)C)C(=O)N[C@@H](CCCNC(=N)N)C(=O)N[C@@H](CCCCN)C(N)=O)C(C)C)C(C)C | Enterobacter aerogenes |  | ATCC 13048 | 18 to 20 h | > 32 µM
TFFRLFNRSFTGRRRRSVQWCA | Streptococcus gordonii | broth microdilution | peptide, ATCC 10558 | 24 h, 37 °C, planktonic, anaerobic | 49.8 ± 16.9 µg/mL
CSCC[C@H](NC(=O)[C@H](Cc1ccc(O)cc1)NC(=O)[C@H](CCCNC(=N)N)NC(=O)[C@H](CCC(N)=O)NC(=O)[C@H](CO)NC(=O)[C@H](CO)NC(=O)[C@H](CCCCN)NC(=O)[C@H](CCCCN)NC(=O)[C@H](CO)NC(=O)[C@H](CCCCN)NC(=O)[C@H](CCC(N)=O)NC(=O)[C@H](CCCCN)NC(=O)[C@H](CCCNC(=N)N)NC(=O)[C@H](CCCCN)NC(=O)[C@H](CO)NC(=O)[C@H](CCCNC(=N)N)NC(=O)[C@H](Cc1c[nH]c2ccccc12)NC(=O)[C@H](CCCCN)NC(=O)[C@@H](N)CCCNC(=N)N)C(=O)O | Micrococcus luteus |  |  |  | 4 µM
CC(C)C[C@H](NC(=O)[C@H](C)NC(=O)[C@H](CC(C)C)NC(=O)[C@@H](NC(=O)[C@H](CC(C)C)NC(=O)[C@H](Cc1c[nH]cn1)NC(=O)[C@H](CC(C)C)NC(=O)[C@@H](NC(=O)[C@@H](N)CO)[C@@H](C)O)C(C)C)C(=O)N[C@@H](CCCNC(=N)N)C(=O)NCC(=O)NCC(=O)O | Bacillus megaterium |  | 899 | 37 °C, ≥90% viability decrease | 100 µM
COc1cc(OC)cc(C(=O)N/N=C/c2ccccc2Cl)c1 | Candida albicans, Aspergillus niger | fungal growth |  |  | 16.2 µM
CCOC(=O)[C@]1(CS)N[C@H](C(=O)O)C(C)(C)S1 | Proteus mirabilis | broth microdilution | clinical isolate | compound at 100 mg/L, added: meropenem | 4 µg/mL
Cc1ccc(C(=O)N/N=C/c2ccccc2Cl)cc1 | Candida albicans, Aspergillus niger | fungal growth |  |  | 24.5 µM
CC[C@H](C)[C@H](NC(=O)CN)C(=O)NCC(=O)N[C@@H](C)C(=O)N[C@H](C(=O)N[C@@H](CC(C)C)C(=O)N[C@@H](CCCCN)C(=O)N[C@H](C(=O)N[C@@H](CC(C)C)C(=O)N[C@H](C(=O)N[C@H](C(=O)NCC(=O)N[C@@H](CC(C)C)C(=O)N1CCC[C@H]1C(=O)N[C@@H](C)C(=O)N[C@@H](CC(C)C)C(=O)N[C@H](C(=O)N[C@@H](CO)C(=O)N[C@@H](Cc1c[nH]c2ccccc12)C(=O)N[C@H](C(=O)N[C@@H](CCCCN)C(=O)N[C@@H](CCCNC(=N)N)C(=O)N[C@@H](CCCCN)C(=O)N[C@@H](CCCNC(=N)N)C(=O)N[C@@H](CCC(N)=O)C(=O)N[C@@H](CCC(N)=O)C(N)=O)[C@@H](C)CC)[C@@H](C)CC)[C@@H](C)O)[C@@H](C)O)C(C)C)C(C)C | Salmonella typhimurium | broth microdilution | KCTC 1926 | 16 h, 37 °C | 1.6 µM
CCCCCCCCCCCCCCCCCC(=O)N/N=C/c1ccccc1Cl | Candida albicans, Aspergillus niger | fungal growth |  |  | 27.5 µM
CC(C)[C@H](NC(=O)[C@H](CO)NC(=O)[C@H](CCCNC(=N)N)NC(=O)[C@H](CCCNC(=N)N)NC(=O)[C@H](CCCNC(=N)N)NC(=O)[C@H](CCCNC(=N)N)NC(=O)CN)C(=O)N[C@@H](CCC(N)=O)C(=O)N[C@@H](Cc1c[nH]c2ccccc12)C(=O)N[C@@H](CS)C(=O)N[C@@H](C)C(=O)O | Streptococcus sanguinis | broth microdilution | ATCC 49295 | 24 h, planktonic anaerobic | 139 ± 62.9 µg/mL
CC[C@H](C)[C@H](NC(=O)[C@@H]1CCCN1C(=O)[C@H](CCCCN)NC(=O)[C@@H]1CCCN1C(=O)[C@@H]1CCCN1C(=O)[C@@H](NC(=O)[C@@H]1CCCN1C(=O)[C@H](CCCNC(=N)N)NC(=O)[C@@H]1CCCN1C(=O)[C@H](CCCCN)NC(=O)[C@H](Cc1ccc(O)cc1)NC(=O)[C@H](CO)NC(=O)CNC(=O)[C@H](CCCCN)NC(=O)[C@H](CC(=O)O)NC(=O)[C@@H](N)C(C)C)[C@@H](C)O)C(=O)N[C@@H](Cc1ccc(O)cc1)C(=O)N[C@@H](CC(N)=O)C(=O)N[C@@H](CCCNC(=N)N)C(=O)N[C@@H](CC(N)=O)C(=O)O | Salmonella enterica serovar Typhimurium |  | SL1344, Mueller-Hinton broth | 18 h, 37 °C | 0.15 ± 0.034 µM
CC(C)C[C@H](NC(=O)[C@H](C)NC(=O)[C@H](CC(C)C)NC(=O)[C@@H](NC(=O)[C@@H](N)CO)[C@@H](C)O)C(=O)N[C@H](C(=O)N[C@@H](CC(C)C)C(=O)N[C@@H](CCCNC(=N)N)C(=O)N[C@@H](CC(C)C)C(=O)N[C@@H](CCCNC(=N)N)C(=O)NCC(=O)NCC(=O)O)C(C)C | Bacillus megaterium |  | 899 | 37 °C, ≥90% viability decrease | 10 µM
Cc1cccc(C(=O)N/N=C/c2ccccc2)c1 | Candida albicans, Aspergillus niger | fungal growth |  |  | 18.6 µM
O=C(NCc1ccc2c(c1)OCO2)c1ncc(Br)cc1F | Saccharomyces cerevisiae | microbial growth |  | 72 h | 100 µM
CC(C)C[C@H](NC(=O)[C@H](CCCNC(=N)N)NC(=O)[C@H](CCCNC(=N)N)NC(=O)[C@H](CCCNC(=N)N)NC(=O)[C@H](CCCNC(=N)N)NC(=O)[C@H](CCCCN)NC(=O)[C@@H](N)C(C)C)C(=O)N[C@@H](C)C(=O)NCC(=O)N[C@@H](Cc1ccccc1)C(=O)N[C@@H](CCCNC(=N)N)C(=O)N[C@H](C(=O)N[C@H](C(=O)N[C@@H](CCCNC(=N)N)C(=O)NCC(=O)N[C@@H](Cc1ccc(O)cc1)C(=O)O)C(C)C)[C@@H](C)O | Micrococcus luteus |  |  |  | 8 µM
CC[C@H](C)[C@H](NC(=O)[C@H](C)N)C(=O)N[C@@H](CCCCN)C(=O)N[C@H](C(=O)N[C@@H](CCCNC(=N)N)C(=O)N[C@@H](CCCCN)C(=O)N[C@@H](CC(C)C)C(=O)N[C@@H](Cc1ccccc1)C(=O)N[C@@H](CCCCN)C(=O)N[C@@H](CCCCN)C(=O)N[C@@H](CC(C)C)C(=O)N[C@@H](CC(C)C)C(=O)N[C@@H](CCCNC(=N)N)C(N)=O)[C@@H](C)CC | Escherichia coli |  | ATCC 25922 | 1 h, 37 °C, non-dividing cells in PBS | 12.5 µg/mL

For quick reference, copied from above:
Substance | organism | assay | test system | conditions | MIC
CCCCCCCCCCCC(=O)N/N=C/c1ccccc1 | Candida albicans, Aspergillus niger | fungal growth |  |  | 61.7 µM
CC[C@H](C)[C@H](NC(=O)[C@@H]1CCCN1C(=O)[C@H](CCCNC(=N)N)NC(=O)[C@@H]1CCCN1C(=O)[C@@H]1CCCN1C(=O)[C@@H](NC(=O)[C@@H]1CCCN1C(=O)[C@H](CCCNC(=N)N)NC(=O)[C@@H]1CCCN1C(=O)[C@H](CC(C)C)NC(=O)[C@H](Cc1ccc(O)cc1)NC(=O)[C@H](CO)NC(=O)CNC(=O)[C@H](CCCCN)NC(=O)[C@H](CC(=O)O)NC(=O)[C@@H](N)C(C)C)[C@@H](C)O)C(=O)N[C@@H](Cc1ccc(O)cc1)C(=O)N[C@@H](CC(N)=O)C(=O)N[C@@H](CCCNC(=N)N)C(=O)N[C@@H](CC(N)=O)C(=O)O | Salmonella enterica serovar Typhimurium |  | SL1344, Mueller-Hinton broth | 18 h, 37 °C | 1.2 ± 0.278 µM
